Measurements collected from several papers.
Protocols differ between the studies behind these lines.
Target: Cytochrome P450 2D6 (CYP2D6, Homo sapiens, UniProt P10635)
UniProt P10635, sequence (whole entry, looked up): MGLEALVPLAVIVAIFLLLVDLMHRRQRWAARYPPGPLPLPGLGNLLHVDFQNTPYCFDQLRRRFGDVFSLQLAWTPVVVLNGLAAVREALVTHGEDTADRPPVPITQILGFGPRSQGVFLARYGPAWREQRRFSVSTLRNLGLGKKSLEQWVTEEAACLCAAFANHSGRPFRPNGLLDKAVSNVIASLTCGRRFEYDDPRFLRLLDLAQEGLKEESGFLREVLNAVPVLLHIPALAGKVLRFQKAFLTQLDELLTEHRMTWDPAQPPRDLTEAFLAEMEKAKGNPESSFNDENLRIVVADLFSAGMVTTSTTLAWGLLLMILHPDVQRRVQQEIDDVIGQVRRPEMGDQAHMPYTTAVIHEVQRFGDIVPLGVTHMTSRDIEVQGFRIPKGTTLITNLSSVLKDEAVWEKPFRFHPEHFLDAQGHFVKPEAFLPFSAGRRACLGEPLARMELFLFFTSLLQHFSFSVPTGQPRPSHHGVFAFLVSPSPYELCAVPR

| Structure (SMILES) | test | system | conditions | IC50 |
| --- | --- | --- | --- | --- |
| CCC1(CC)CC(=O)N(C2c3cc(C(=O)NC4c5ccccc5CC4O)ccc3OC2(C)COC)C(=N)N1 (stereo not shown) | enzyme activity, inhibitor | – | – | 19.3 µM |
| N=C(N)SCc1ccccc1CSC(=N)N | enzyme activity, inhibitor | – | – | 8.1 µM |
| Cc1[nH]nc2c1N=C(c1ccccc1Cl)c1cnc(N3CCOCC3)cc1N2 | enzyme activity, inhibitor | human, liver microsomes | – | > 10 µM |
| NC(=O)c1ccc(C(=O)NOCc2ccc(Sc3cccc(Cl)c3)c(C(F)(F)F)c2)cc1 | – | pooled human liver microsomes | 20 min | 12.7 µM |
| CCC1(CC)CC(=O)N(C2CCOc3ccc(C(=O)NC4CC(C)(C)Oc5ccccc54)cc32)C(=N)N1 (stereo not shown) | enzyme activity, inhibitor | – | – | > 20 µM |
| CC(C)(C)n1ncc2c(=O)n(Cc3cccc(F)c3)c(NCc3ccc(F)cn3)nc21 | enzyme activity, inhibitor | – | – | 7.8 µM |
| O=C(NC1CCC(F)(F)CC1)C(c1cncnc1)N(C(=O)C(F)Cl)c1ccc(OC(F)(F)F)cc1 (stereo not shown) | enzyme activity, inhibitor | – | 10 (unit not given) | 44.5 µM |
| OCC1OC(n2cnc3c(NCc4ccc(Br)s4)ncnc32)C(O)C1O (stereo not shown) | enzyme activity, inhibitor, fluorescence | – | pH 7.4, together with: AMMC | > 10 µM |
| C=C(NC(=O)c1csc(-c2nc3c(cc2O)-c2nc(cs2)C(=O)NC(C(C)O)C(=O)NC(=C(C)OC)c2nc(cs2)C(=O)NC2c4nc(cs4)C(=O)NC(COC(=O)c4c5c6c(cccc6n4O)COC(=O)C(OC4CC(C)(O)C(N(C)C)C(C)O4)C2OC5)c2nc-3cs2)n1)C(N)=O (stereo not shown) | enzyme activity, inhibitor | human, liver microsomes | pH 7.4 | > 50 µM |
| C[C@H]1CN(C(=O)c2cn(-c3ccnc(N)n3)c3cc(C#CC4(O)CCCCC4)ccc23)CCN1 | enzyme activity, inhibitor | human, liver microsomes | 10 min | > 50 µM |

Excerpt of the above:
| Structure (SMILES) | test | system | conditions | IC50 |
| --- | --- | --- | --- | --- |
| CCC1(CC)CC(=O)N(C2c3cc(C(=O)NC4c5ccccc5CC4O)ccc3OC2(C)COC)C(=N)N1 (stereo not shown) | enzyme activity, inhibitor | – | – | 19.3 µM |
